Measurements of several laboratories.
Each numbered part is a random draw from the data of one study; scales do not carry over between parts. Changes are numbered by the printed parent chain.

Study 1
Target: Myc proto-oncogene protein, bHLH-zipper, MAX partner unstated (MYC, Homo sapiens, UniProt P01106, residues 368-449)
UniProt P01106, sequence (368-449, looked up): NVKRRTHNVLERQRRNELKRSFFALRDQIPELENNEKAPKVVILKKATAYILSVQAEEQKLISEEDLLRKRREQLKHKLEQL
Technique: protein-binding microarray
Molecule type: double-stranded DNA, one strand shown
Medium: in vitro
Concentration: not given
Setting: k-mer, scored over probes, only values ≥0.25
Reading: higher = stronger binding
Sequence | E-score
GCGTGCAC | 0.414
ATGTGGAG | 0.256
CGCGGGGC | 0.316
ACGAGCAT | 0.256
AACACGTT | 0.369
CAAGCACG | 0.379
GCCATGCC | 0.406
CTAACCAC | 0.259
CGCATGAA | 0.281
ATCGTGCG | 0.326
ATGTCATG | 0.304
AATGCATG | 0.381
GACCCACC | 0.271
ACAATGTG | 0.362
CACGAGTG | 0.379
CACGCGTC | 0.439
CCGCCACG | 0.398
ATCGTGTC | 0.275
CCCACCCG | 0.26
GGCGCCAC | 0.323

Study 2
Target: CCND3, cyclin fold, Cln2 fusion (human)
Technique: yeast growth competition, sequencing
Medium: yeast
Setting: weak parent motif
Baseline: not given
Reading: higher = stronger binding
Starting sequence: CDC25A docking peptide (human); PPHRRRLLFACSP
Variant | normalised enrichment score
PPHRCRLLFACSP [R5C] | 0.101
PPHRVRLLFACSP [R5V] | 0.161
PPHRRYLLFACSP [R6Y] | 0.0584
PPHRRRLCFACSP [L8C] | 0.0985
PPHRRRLLFACSC [P13C] | 0.146
PPHRRRLLFAISP [C11I] | 0.141
PPHRRRLLFACKP [S12K] | 0.101
PPHRRRLLFACLP [S12L] | 0.171
PPHRQRLLFACSP [R5Q] | 0.179
PPHRRRLLCACSP [F9C] | 0.0921
PPHDRRLLFACSP [R4D] | 0.117
SPHRRRLLFACSP [P1S] | 0.1
PPHRRRTLFACSP [L7T] | 0.217
PPHRRRLLEACSP [F9E] | 0.109
PPHRRRELFACSP [L7E] | 0.14
PPHTRRLLFACSP [R4T] | 0.151
PPHRRRLLFACSW [P13W] | 0.116
PPHRFRLLFACSP [R5F] | 0.168
PRHRRRLLFACSP [P2R] | 0.212
PPHRRRLLFWCSP [A10W] | 0.165
PPHRRRLLFACTP [S12T] | 0.102
PPHRRRLLRACSP [F9R] | 0.229
PPHRRRLLFACSV [P13V] | 0.124
PPHRRRLLPACSP [F9P] | 0.134
PPHRRRLLFACSR [P13R] | 0.0928

Study 3
Target: RNA binding protein fox-1 homolog 2, RRM domain, GST-SBP tag (RBFOX2, Homo sapiens, UniProt O43251-10, residues 100-194)
Technique: RNA Bind-n-Seq
Molecule type: RNA
Medium: in vitro
Concentration: 365 nM
Setting: natural RNA segment, single round, ends assumed
Baseline: no-protein control
Reading: higher = stronger binding
Shared flanks, not repeated: GGGAGUUCUACAGUCCGACGAUC … UGGAAUUCUCGGGUGCCAA
Construct (chain): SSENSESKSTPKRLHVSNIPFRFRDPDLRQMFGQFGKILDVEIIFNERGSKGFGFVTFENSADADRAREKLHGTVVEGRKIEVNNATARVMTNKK
Sequence | RBNS enrichment (R)
ACGACCUCAUCCUGGAGAUCGAGUGAUCUUGCCCCAGACCGGCAGCCUGGCCAUCCCCAAGCCUUCAACAGAAGCUGUGCUGCCACGGCAGGCCCAGGCCAGCCAGUGCC | 0.338
GAUGGAGCUCCCCCUCCCCACAGGGCUGCCAUUACCAGACCACGGCCCUGCAGGGCCCUGGGCUCCUGUCUGCUGAUGCUGCCCGCCUCACCUGCAGAGGUGCCCAUCAG | 0.498
GAAAGGCGGCAAUAUUCAAACCAGAGACCCUGGGCAUCGGUGUAGCCAGUCUGAAGGCCUGAGCCAGGAGCGCUGUGUGGGUUGCCUGUCUCAGGUCGUUGUCAUUUGCC | 0.249
CUUGUCCAGCCUCCUGCUACCGCUGCCCACCUCCUGCCUCCAUUGCCCAGGCCACACUAGUUGGCCCCAGCACUCUACCUUAGGCCCAGGCUGGCCACAGGCAGUGGGCA | 0.343
CAAAACCUGGAGCAAUUUAAAUAGGCUAAAUGGUUUUGAUUAAAUCUUGAGCUCCGAGUUGGAAGGAGAAAAUGAGAAGUUAACCCCUUGAGCCAUGUGGUCUCUUUACA | 0.508
UCACUGCCACUUUGACAAAAGCCCAAUUAGAAGCCAGUCUCUAGUUCCUUAAACAAAACAGACAGAGUAAGGAAAGGAAGGAGGGUGGCAGCCAGCUGGCUGGACACUCG | 0.404
UGAAGAGAUGAGUGCUCAGAGCCCUCAUGCUGUUGAGGCUAAAGGGAGGCCUGGAACGGUGGGGCGUUUGACUGGAAUGGACCCCAGGGACUGUCCAGGUGCAGCCCCUC | 0.622
UUCUGCUAAGGUGGUGAGGUCGCCAACACUGGCAUGUCUCGGUAGUGGUUUGGGCAAAUUUCUGCAGGUCCCUUCCCCCCAACCCCGUCUCUGAUGAAUAAAGACCAUGA | 0.761

Study 4
Target: ABI1, truncated, D143A, DHFR fusion (Arabidopsis thaliana)
Technique: DHFR PCA, deep sequencing
Medium: yeast
Setting: methotrexate growth selection, single substitutions
With: (+)-ABA 0.0091 µM
Baseline: wild-type fitted maximum
Reading: higher = stronger binding
Starting sequence: PYL1, truncated, DHFR fusion (Arabidopsis thaliana); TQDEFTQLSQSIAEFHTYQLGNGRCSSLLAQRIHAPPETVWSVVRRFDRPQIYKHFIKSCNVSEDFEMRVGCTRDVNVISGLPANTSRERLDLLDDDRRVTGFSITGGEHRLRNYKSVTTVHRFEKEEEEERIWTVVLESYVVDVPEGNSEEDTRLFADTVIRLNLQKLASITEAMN; partner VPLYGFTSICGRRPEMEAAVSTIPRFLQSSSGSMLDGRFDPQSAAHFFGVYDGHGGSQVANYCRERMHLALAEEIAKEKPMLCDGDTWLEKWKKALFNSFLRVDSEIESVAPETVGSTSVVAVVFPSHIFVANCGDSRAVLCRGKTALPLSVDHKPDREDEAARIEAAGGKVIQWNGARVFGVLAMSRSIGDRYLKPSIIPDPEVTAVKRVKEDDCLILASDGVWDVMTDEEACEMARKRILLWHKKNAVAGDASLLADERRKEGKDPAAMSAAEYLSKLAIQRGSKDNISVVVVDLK
Variant | relative binding score [%]
H110N | 63.4
K126F | 12.2
E38G | 12.6
V145Y | 1.57
L164W | 5.05
R45A | 2.12
E127P | 51.6
T39I | 54.3
R98Q | 11.7
V43T | -1.98
I133G | 41
R45F | -5.14
R132P | 37.5
N177I | 22.2
L169P | 2.92
F66V | 1.31
R113H | 13.8

Study 5
Target: Histone acetyltransferase KAT6A, winged helix 2, GST fusion (KAT6A, Homo sapiens, UniProt Q92794, residues 85-181)
Technique: protein binding microarray
Molecule type: double-stranded DNA, one strand shown
Medium: in vitro
Concentration: not given
Setting: 8-mer, flanks averaged, mean of 2 arrays, mostly near background
Baseline: not given
Reading: higher = stronger binding
Construct (chain): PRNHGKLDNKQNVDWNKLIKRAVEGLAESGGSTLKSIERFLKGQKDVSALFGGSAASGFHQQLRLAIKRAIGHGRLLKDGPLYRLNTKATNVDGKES
Sequence | E-score
ACCAAAGA | 0.152
AAGTGGGC | 0.187
CACCGGCC | 0.00655
GGGATCGA | 0.0682
AAGGTTCT | -8.5e-05
ACGAATTG | -0.0433
CAAAACGA | 0.154
CAGGTAAA | 0.0746
ATCGTTGA | -0.0413
AGTTGCAG | -0.0105
ATCCTTGA | -0.0374
CTGCGAAG | -0.0269
AAACGAGA | 0.109
ATGATCTC | 0.0603
AGACACGA | -0.0611
AGATAGTG | -0.0753
AGGCATTA | -0.0769
CTTGTTGA | -0.000675
AAAACACT | -0.0586
ATTTACCA | 0.077
ACAAAACT | 0.0485
AGCCCGTC | -0.0726
TGCCTGAA | -0.0591
AAAGTGTT | 0.0235
CTTGTACA | -0.176

A few entries again (study 1):
Sequence | E-score
CGCATGAA | 0.281
ATCGTGCG | 0.326
ATGTCATG | 0.304
AATGCATG | 0.381
GACCCACC | 0.271
ACAATGTG | 0.362
CACGAGTG | 0.379
CACGCGTC | 0.439
CCGCCACG | 0.398
ATCGTGTC | 0.275
CCCACCCG | 0.26
GGCGCCAC | 0.323
